Experimental data gathered from unrelated publications.
Protocols differ between the studies behind these lines.
Cell line: MDA-MB-468

The IC50 of `Cc1ccc(C(=O)N2CCN(CC(OCc3ccc4ccccc4c3)c3ccc(Cl)cc3Cl)CC2)cc1` (stereo not drawn) is reported as 43.6 µM (cell growth or viability, MTT; 24 h).
For `CCN(C(=O)c1cc(F)ccc1Oc1nncnc1N1CCC2(C1)CN([C@H](CCCN(C)CCOC)C(C)C)C2)C(C)C`, the GI50 was over 10 µM (cell growth or viability; 7 days).
`CC(C)NCCCn1c(Sc2cc(Cl)cc(-c3ccoc3)c2)nc2c(N)ncnc21` gave an IC50 of 0.17 µM (cell growth or viability, resazurin; 72 h).
`O=C(c1ccncc1)N1CCN(CC(OCc2ccc3ccccc3c2)c2ccc(Cl)cc2Cl)CC1` (stereo not drawn) gave an IC50 of 42.4 µM (cell growth or viability, MTT; 24 h).
For `COc1cccc(-c2cc(Cl)cc(Sc3nc4c(N)ncnc4n3CCCNC(C)C)c2)c1`, the IC50 was over 10 µM (cell growth or viability, resazurin; 72 h).
`COc1ccc(C(=O)N2CCN(CC(OCc3ccc4ccccc4c3)c3ccc(Cl)cc3Cl)CC2)cc1` (stereo not drawn) gave an IC50 of 44.7 µM (cell growth or viability, MTT; 24 h).
`C=C(C)c1cc(Cl)cc(Sc2nc3c(N)ncnc3n2CCCNC(C)C)c1` has an IC50 of 0.06 µM (cell growth or viability, resazurin; 72 h).
For `CC(C)(C)OC(=O)N1CCN(CC(OCc2ccc3ccccc3c2)c2ccc(Cl)cc2Cl)CC1` (stereo not drawn), the IC50 was 17.6 µM (cell growth or viability, MTT; 24 h).
For `C#CCCCC(O)/C=C/C(=O)NC1(c2ccc(-c3nc4ccn5c(=O)[nH]nc5c4cc3-c3ccccc3)cc2)CCC1` (stereo not drawn), “cells in S phase” read 22.1% (flow cytometry, PI staining; EC80 concentration, 72 h, DMSO 22.2).
For `CN(C)CCN1CCN(c2ccc3nc(-c4ccc5nc(-c6ccc(C(F)(F)F)cc6)[nH]c5c4)[nH]c3c2)CC1`, the growth percent was 13.7% (SRB; 10 µM, 48 h).
For `C=C(C)c1cc(Cl)cc(Sc2nc3c(N)nc(F)nc3n2CCCNC(C)C)c1`, the IC50 was 0.08 µM (cell growth or viability, resazurin; 72 h).
The IC50 of `CCN1CCN(CC(=O)N2CCN(CC(OCc3ccc4ccccc4c3)c3ccc(Cl)cc3Cl)CC2)CC1` (stereo not drawn) is reported as 29 µM (cell growth or viability, MTT; 24 h).
For `Cc1cc(C)nc(NC(=S)N2CCN(Cc3ccc(C(F)(F)F)cc3)CC2)c1`, “M+2 glycine pool” read “decreased” (isotope labelling; concentration not given, 4 h, added: U-13C-serine).
For `O=S1(=O)CC2CCCCC2CS1` (stereo not drawn), the viability was 2.89% (MTT; 25 µM, 72 h).
`C#CCCCC(F)/C=C/C(=O)NC1(c2ccc(-c3nc4ccn5c(=O)[nH]nc5c4cc3-c3ccccc3)cc2)CCC1` (stereo not drawn) — result for “G2/M phase cells”: 28.6% (flow cytometry PI; EC60, 72 h).
`Clc1ccc(C(Cn2ccnc2)OCc2ccc(Br)cc2)c(Cl)c1` (stereo not drawn) gave an IC50 of over 50 µM (cell growth or viability, MTT; 24 h).
For `Cc1nc2c(F)cc(-c3nc(Nc4ccc(CNC(=O)CCCCCC(=O)NO)cc4)ncc3F)cc2n1C(C)C`, the inhibition was 99.6% (cell growth or viability, CCK-8; 0.3 µM, 48 h).
For `CC(C)NCCCn1c(Sc2cc(Br)cc(I)c2)nc2c(N)ncnc21`, the IC50 was 0.08 µM (cell growth or viability, resazurin; 72 h).
`Cc1nc2c(F)cc(-c3nc(Nc4ccc(C(=O)NCCCCCC(=O)NO)cc4)ncc3F)cc2n1C(C)C` gave an inhibition of 42% (cell growth or viability, CCK-8; 0.3 µM, 48 h).
For `Cc1cc(C)nc(NC(=S)N2CCN(c3ccc(C(F)(F)F)cn3)CC2)c1`, “M+1 dTMP pool” read “decreased” (isotope labelling; 10 µM, 24 h, added: U-13C-serine).
For `O=C(CN1CCOCC1)N1CCN(CC(OCc2ccc3ccccc3c2)c2ccc(Cl)cc2Cl)CC1` (stereo not drawn), the IC50 was over 50 µM (cell growth or viability, MTT; 24 h).
`CC(C)NCCCn1c(Sc2cc(Cl)cc(I)c2)nc2c(N)nc(F)nc21` gave an IC50 of 0.05 µM (cell growth or viability, resazurin; 72 h).
The IC50 of `Clc1ccc(C(Cn2cncn2)OCc2ccc3ccccc3c2)c(Cl)c1` (stereo not drawn) is reported as 33.4 µM (cell growth or viability, MTT; 24 h).
`CC(C)(C)NCCCn1c(Sc2cc(Cl)cc(Cl)c2)nc2c(N)ncnc21` gave an IC50 of 0.21 µM (cell growth or viability, resazurin; 72 h).

A few entries again:
For `C=C(C)c1cc(Cl)cc(Sc2nc3c(N)nc(F)nc3n2CCCNC(C)C)c1`, the IC50 was 0.08 µM (cell growth or viability, resazurin; 72 h).
`CC(C)(C)NCCCn1c(Sc2cc(Cl)cc(Cl)c2)nc2c(N)ncnc21` gave an IC50 of 0.21 µM (cell growth or viability, resazurin; 72 h).
